Results gathered from unrelated publications.
Numbered parts are unrelated; each lists some results of a single study. Substitutions count along the parent as printed.
UniProt Q13237, sequence (whole entry, looked up): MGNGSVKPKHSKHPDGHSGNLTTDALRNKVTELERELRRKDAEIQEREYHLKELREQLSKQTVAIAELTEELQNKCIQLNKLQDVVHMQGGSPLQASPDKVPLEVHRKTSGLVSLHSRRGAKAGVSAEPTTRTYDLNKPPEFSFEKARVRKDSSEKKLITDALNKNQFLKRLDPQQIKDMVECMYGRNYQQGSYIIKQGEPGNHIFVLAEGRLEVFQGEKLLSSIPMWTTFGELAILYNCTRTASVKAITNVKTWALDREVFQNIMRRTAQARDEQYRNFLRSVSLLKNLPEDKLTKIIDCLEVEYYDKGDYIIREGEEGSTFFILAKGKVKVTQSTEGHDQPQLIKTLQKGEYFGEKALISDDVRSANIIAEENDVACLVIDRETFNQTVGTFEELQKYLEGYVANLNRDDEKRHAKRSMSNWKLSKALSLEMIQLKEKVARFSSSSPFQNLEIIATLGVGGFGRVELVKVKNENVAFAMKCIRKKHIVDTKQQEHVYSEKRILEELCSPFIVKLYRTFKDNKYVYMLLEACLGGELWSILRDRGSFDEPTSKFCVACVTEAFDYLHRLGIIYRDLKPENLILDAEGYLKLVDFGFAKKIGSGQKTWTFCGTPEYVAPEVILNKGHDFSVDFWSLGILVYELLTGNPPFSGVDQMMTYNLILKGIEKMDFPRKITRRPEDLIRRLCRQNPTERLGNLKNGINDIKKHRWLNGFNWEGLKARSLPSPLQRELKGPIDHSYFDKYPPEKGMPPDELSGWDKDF
UniProt Q9BYP7, sequence (whole entry, looked up): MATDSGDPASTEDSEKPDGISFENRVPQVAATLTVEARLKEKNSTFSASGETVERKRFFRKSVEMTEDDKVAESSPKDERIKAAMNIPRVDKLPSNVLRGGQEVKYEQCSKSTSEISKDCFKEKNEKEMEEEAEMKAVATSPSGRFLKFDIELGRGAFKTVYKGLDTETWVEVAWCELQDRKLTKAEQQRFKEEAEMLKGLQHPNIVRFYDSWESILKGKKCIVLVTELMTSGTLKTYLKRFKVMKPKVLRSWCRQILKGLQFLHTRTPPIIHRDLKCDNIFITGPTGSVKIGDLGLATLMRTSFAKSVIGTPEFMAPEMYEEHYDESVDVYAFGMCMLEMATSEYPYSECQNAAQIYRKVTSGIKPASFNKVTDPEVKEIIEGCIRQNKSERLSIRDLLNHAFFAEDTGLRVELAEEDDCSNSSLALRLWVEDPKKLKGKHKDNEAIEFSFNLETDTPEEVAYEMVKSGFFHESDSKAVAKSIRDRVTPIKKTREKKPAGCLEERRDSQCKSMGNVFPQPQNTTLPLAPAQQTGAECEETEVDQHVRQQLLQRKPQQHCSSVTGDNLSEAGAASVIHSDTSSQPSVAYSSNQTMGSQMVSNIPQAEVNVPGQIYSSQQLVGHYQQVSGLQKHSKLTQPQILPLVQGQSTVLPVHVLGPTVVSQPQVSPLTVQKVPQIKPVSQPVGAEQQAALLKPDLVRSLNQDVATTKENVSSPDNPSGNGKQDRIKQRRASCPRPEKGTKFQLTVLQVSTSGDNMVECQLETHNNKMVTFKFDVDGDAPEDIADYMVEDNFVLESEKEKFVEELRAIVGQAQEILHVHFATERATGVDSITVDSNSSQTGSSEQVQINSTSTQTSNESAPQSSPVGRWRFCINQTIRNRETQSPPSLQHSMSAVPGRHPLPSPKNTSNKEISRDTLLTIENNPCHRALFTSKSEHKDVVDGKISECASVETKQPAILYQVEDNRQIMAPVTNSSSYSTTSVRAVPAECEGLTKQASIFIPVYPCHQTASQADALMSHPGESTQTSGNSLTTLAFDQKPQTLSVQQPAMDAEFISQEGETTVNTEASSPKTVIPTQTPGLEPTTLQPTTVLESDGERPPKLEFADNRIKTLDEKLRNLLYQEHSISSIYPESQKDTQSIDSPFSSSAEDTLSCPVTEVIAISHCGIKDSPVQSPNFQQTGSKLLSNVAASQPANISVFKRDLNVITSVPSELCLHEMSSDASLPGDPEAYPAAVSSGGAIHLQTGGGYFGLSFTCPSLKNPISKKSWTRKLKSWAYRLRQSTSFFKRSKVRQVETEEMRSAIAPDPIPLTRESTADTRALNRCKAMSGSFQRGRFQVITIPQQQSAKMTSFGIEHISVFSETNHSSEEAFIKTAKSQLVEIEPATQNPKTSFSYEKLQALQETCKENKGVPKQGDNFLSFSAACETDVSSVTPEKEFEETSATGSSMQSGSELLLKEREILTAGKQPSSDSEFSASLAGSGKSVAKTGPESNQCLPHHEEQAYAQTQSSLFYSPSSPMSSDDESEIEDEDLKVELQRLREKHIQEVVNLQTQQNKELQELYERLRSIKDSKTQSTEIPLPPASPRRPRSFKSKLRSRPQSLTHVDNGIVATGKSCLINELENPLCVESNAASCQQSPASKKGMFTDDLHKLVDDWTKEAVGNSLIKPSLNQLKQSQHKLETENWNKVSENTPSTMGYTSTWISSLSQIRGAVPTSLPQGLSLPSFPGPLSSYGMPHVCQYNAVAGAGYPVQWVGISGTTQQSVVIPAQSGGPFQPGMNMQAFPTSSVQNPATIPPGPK
UniProt Q00532, sequence (whole entry, looked up): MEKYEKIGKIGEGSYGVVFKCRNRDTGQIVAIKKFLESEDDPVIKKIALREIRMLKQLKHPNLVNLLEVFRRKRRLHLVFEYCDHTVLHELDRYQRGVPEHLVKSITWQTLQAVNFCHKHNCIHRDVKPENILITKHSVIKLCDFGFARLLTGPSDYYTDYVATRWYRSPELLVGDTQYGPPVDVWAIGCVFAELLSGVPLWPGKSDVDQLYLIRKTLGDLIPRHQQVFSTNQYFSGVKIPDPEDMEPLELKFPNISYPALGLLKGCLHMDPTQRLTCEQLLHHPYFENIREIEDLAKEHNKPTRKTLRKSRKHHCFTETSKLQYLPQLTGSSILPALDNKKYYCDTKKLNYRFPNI
UniProt P27037, sequence (whole entry, looked up): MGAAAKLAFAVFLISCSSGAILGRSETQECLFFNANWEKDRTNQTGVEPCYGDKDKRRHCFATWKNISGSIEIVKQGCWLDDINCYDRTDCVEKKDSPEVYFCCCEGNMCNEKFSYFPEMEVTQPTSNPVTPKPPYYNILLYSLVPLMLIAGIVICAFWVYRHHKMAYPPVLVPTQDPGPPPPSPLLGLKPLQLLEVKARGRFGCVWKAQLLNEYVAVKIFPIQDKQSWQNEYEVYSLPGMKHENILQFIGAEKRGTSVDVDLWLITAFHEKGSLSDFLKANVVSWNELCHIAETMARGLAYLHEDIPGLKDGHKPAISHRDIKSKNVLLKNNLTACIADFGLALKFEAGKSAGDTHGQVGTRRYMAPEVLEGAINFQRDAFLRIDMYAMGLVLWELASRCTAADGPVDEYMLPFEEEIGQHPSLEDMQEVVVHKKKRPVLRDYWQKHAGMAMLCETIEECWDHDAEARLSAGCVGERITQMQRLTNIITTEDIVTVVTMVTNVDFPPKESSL
UniProt Q9H422, sequence (whole entry, looked up): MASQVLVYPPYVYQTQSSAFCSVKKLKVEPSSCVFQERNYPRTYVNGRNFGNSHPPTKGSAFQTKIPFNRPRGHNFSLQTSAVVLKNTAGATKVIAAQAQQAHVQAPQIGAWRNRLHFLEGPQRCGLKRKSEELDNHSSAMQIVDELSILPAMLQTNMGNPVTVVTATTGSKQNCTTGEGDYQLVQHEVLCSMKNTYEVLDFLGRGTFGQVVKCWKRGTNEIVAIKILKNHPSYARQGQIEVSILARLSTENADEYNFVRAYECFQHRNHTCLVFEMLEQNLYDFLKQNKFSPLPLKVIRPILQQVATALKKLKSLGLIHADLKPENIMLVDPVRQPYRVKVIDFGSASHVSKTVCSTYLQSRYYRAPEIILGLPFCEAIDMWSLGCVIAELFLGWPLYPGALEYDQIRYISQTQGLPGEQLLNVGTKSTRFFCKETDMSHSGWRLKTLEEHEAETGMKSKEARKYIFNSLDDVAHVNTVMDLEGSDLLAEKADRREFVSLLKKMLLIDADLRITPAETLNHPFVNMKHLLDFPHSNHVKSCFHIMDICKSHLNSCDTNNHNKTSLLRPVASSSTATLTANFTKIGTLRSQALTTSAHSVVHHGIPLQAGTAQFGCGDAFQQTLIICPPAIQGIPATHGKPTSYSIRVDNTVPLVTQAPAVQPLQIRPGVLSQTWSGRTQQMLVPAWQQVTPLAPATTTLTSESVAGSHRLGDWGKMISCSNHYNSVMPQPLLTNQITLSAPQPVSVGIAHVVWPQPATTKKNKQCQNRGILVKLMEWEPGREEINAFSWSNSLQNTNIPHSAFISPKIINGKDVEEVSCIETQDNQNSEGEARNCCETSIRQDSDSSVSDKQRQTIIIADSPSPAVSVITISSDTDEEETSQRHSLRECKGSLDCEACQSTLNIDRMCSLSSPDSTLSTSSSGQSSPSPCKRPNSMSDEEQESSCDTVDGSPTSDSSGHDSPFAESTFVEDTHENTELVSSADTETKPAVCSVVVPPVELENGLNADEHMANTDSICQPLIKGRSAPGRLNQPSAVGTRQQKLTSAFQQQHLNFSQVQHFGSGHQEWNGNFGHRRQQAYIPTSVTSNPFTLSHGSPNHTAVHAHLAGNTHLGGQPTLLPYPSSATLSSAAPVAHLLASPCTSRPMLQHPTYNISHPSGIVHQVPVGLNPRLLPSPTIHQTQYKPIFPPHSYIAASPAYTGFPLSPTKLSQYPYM

Sample 1 — target: inorganic phosphate, free oxyanion; method: microfluidic competitive inhibition; matrix: in vitro, cell-free expressed; tested at: not given; direction: lower = stronger binding
Notes: derived from inhibition constants, unchanged parent 615000 nM
Starting sequence: PafA, mature enzyme, eGFP fusion (Elizabethkingia meningoseptica, UniProt Q9KJX5); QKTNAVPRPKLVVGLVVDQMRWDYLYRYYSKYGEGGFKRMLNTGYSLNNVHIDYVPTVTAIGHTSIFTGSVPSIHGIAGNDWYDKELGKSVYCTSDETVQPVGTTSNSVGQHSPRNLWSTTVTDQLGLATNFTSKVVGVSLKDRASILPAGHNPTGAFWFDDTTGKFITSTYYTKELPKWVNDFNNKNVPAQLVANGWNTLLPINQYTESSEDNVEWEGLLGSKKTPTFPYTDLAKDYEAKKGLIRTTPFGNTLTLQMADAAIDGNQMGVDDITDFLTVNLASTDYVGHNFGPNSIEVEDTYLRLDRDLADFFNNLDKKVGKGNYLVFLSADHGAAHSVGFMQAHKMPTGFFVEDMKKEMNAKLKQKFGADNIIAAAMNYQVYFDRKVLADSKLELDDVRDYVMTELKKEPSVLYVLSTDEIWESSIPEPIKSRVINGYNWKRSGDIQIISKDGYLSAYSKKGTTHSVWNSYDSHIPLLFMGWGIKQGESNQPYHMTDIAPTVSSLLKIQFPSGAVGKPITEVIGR
| Change | phosphate dissociation constant [µM] |
| --- | --- |
| V139G | 501 |
| F167V | 601 |
| K486G | 592 |
| W483V | 598 |
| M481V | 588 |
| L309V | 627 |
| P190G | 561 |
| K166G | 586 |

Sample 2 — method: competition with immobilised ligand; tested at: 1 µM
SMILES: Cn1cncc1[C@@](O)(COc1ccc(C#N)cc1-c1ccc(OC(F)(F)F)cc1)c1ccc(C#N)cc1
| target | assay | remaining binding |
| --- | --- | --- |
| Homeodomain-interacting protein kinase 3 (HIPK3, Homo sapiens, UniProt Q9H422) | cell-free assay | 97% |
| Serine/threonine-protein kinase WNK3 (WNK3, Homo sapiens, UniProt Q9BYP7) | cell-free assay | 100% |
| cGMP-dependent protein kinase 2 (PRKG2, Homo sapiens, UniProt Q13237) | cell-free assay | 87% |
| Cyclin-dependent kinase-like 1 (CDKL1, Homo sapiens, UniProt Q00532) | binding | 89% |
| Phosphatidylinositol 4,5-bisphosphate 3-kinase catalytic subunit alpha isoform (PIK3CA, Homo sapiens, UniProt P42336, C420R) | cell-free assay | 90% |
| Vascular endothelial growth factor receptor 2 (KDR, Homo sapiens, UniProt P35968) | cell-free assay | 100% |
| Dual specificity mitogen-activated protein kinase kinase 5 (MAP2K5, Homo sapiens, UniProt Q13163) | cell-free assay | 88% |
| Serine/threonine-protein kinase N2 (PKN2, Homo sapiens, UniProt Q16513) | cell-free assay | 85% |
| Dual specificity mitogen-activated protein kinase kinase 1 (MAP2K1, Homo sapiens, UniProt Q02750) | cell-free assay | 89% |
| Serine/threonine-protein kinase 33 (STK33, Homo sapiens, UniProt Q9BYT3) | cell-free assay | 69% |
| Atypical kinase COQ8B, mitochondrial (COQ8B, Homo sapiens, UniProt Q96D53) | cell-free assay | 100% |
| Serine/threonine-protein kinase pim-3 (PIM3, Homo sapiens, UniProt Q86V86) | cell-free assay | 100% |
| Tyrosine-protein kinase ABL2 (ABL2, Homo sapiens, UniProt P42684) | cell-free assay | 100% |
| Activin receptor type-2A (ACVR2A, Homo sapiens, UniProt P27037) | cell-free assay | 98% |
| STE20/SPS1-related proline-alanine-rich protein kinase (STK39, Homo sapiens, UniProt Q9UEW8) | cell-free assay | 100% |

Sample 3 — target: CCNE2, cyclin fold, Cln2 fusion (human); method: yeast growth competition, sequencing; matrix: yeast; notes: strong parent motif; baseline: not given; direction: higher = stronger binding
Starting sequence: viral docking peptide; TSVRRALFTGGSD; partner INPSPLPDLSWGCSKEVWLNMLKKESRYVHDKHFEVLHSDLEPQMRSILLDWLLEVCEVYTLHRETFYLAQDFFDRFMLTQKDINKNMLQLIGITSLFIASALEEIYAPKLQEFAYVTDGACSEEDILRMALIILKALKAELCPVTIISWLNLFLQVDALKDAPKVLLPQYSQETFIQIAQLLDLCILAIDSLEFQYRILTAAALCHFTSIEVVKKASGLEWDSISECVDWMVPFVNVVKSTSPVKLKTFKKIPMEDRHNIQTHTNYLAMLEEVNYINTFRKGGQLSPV
| Change | normalised enrichment score |
| --- | --- |
| L7P | 0.221 |
| R4D | -0.309 |
| L7S | -0.28 |
| V3W | 1.39 |
| F8P | 0.275 |
| T9L | 3.31 |
| F8R | 0.185 |
| R4S | 1.13 |

Further values, each from its own experiment
| Substance | target or system | assay | test system | conditions | scale | measurement | result |
| --- | --- | --- | --- | --- | --- | --- | --- |
| AAAAAAAA (biotin) | SAFB-like transcription modulator, RRM domain (SLTM, Homo sapiens, UniProt Q9NWH9, residues 360-485) | protein domain microarray | RNA, in vitro | not given, poly(A) 8-mer RNA, whole probe, immobilized GST-fusion domains, most near background | baseline: GST loading signal, higher = stronger binding | signal ratio | 0.0377 |
| O=C1CCC(N2Cc3c(ccc4c3OCC43CCN(Cc4ccccc4)CC3)C2=O)C(=O)N1 (stereo not drawn) | – | – | ICR mouse, male, plasma | oral, 3 mg/kg, 24 h | – | plasma concentration | 1.28 ng/mL |

Repeated from above (sample 1):
| Change | phosphate dissociation constant [µM] |
| --- | --- |
| P190G | 561 |
| W483V | 598 |
| F167V | 601 |
| L309V | 627 |
